Results of several laboratories.
Numbered parts are unrelated; each lists some results of a single study. Changes are numbered by the printed parent chain.

Set 1 — method: DHFR PCA, deep sequencing; medium: yeast; with: (+)-ABA 1.4 µM; baseline: wild-type fitted maximum; direction: higher = stronger binding; measurement: relative binding score
Target: ABI1, truncated, D143A, DHFR fusion (Arabidopsis thaliana)
Notes: methotrexate growth selection, single substitutions
Starting sequence: PYL1, truncated, DHFR fusion (Arabidopsis thaliana); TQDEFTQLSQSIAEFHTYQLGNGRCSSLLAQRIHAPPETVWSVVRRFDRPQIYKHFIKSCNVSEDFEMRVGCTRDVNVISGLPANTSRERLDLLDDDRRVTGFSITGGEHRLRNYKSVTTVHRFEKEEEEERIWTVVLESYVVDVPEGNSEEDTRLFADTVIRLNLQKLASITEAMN; partner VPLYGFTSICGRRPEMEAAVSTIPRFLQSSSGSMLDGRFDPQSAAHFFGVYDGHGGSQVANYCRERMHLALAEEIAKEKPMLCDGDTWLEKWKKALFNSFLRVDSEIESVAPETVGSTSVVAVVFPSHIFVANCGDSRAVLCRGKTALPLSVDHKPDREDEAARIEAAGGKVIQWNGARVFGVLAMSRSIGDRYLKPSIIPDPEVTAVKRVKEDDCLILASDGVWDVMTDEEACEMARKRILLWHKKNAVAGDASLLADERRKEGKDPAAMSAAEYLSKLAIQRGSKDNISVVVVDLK
Substitution = F66H; value = 18%
Substitution = N149P; value = 13.6%
Substitution = Q10N; value = 49.6%
Substitution = T120I; value = 3.32%
Substitution = G21Y; value = 7.2%
Substitution = L8H; value = 6.81%

Set 2 — method: RNA Bind-n-Seq; form: RNA; medium: in vitro; tested at: 365 nM; baseline: no-protein control; direction: higher = stronger binding; measurement: RBNS enrichment (R)
Target: RNA binding protein fox-1 homolog 2, RRM domain, GST-SBP tag (RBFOX2, Homo sapiens, UniProt O43251-10, residues 100-194)
Notes: natural RNA segment, single round, ends assumed
All sequences stand within: GGGAGUUCUACAGUCCGACGAUC … UGGAAUUCUCGGGUGCCAA
Target sequence (chain): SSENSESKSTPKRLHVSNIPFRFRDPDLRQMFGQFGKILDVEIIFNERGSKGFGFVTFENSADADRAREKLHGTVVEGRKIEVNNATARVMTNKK
Sequence = GGCAUGUAUCUGUAGUUCCUUGCUGAGUAACAAGAAGUAAAAUACAUGUUUGUAUAUCUACAUUUACAUUCUGCGCCCCAGAGCUAAGACAGACUGCGAAUCACUUUUCU; value = 1.88
Sequence = UCUAAGACUGGCAAAAGGACAGCAGUCUUCUAUGUUUAGUCAAUAUUCAUUUCAGUAGAAGAUAAUCUUAUCUAAUUUUUGAGACCAGAAUAAGCCUUUUAAGGUAAACC; value = 0.483
Sequence = GGGAAGGUGACCUGGCCAGAGCCAAGAAACACUUUCAGAAAAACAAAUGUGAAGGGGAGAGACAGGGGCCGCCCUUGGCUCCUGUCCCUGCUGCUCCUCUAGGCCUCACU; value = 0.213
Sequence = ACACUGCCGCGCCCAGCUAAUUUUUUGUAUUUUUUAGUAGAGACAGGGUUUCACUGUGUUGCCCAGGCUGGUCUCAAACUCCUGAGCUCAGGCAAUCUGCCCGCCUUGGC; value = 0.632
Sequence = GAAAGCAGGCUGAGGUUAUUAUUGCUAACACACCUCAGCCGAGCAGGCUAUGUACCUCGAAGGGAGGGCCUGGGGGACAAUGUUACCGAGAGGAGAAUGUGAGCACAUUU; value = 1.53
Sequence = AUUGCAAAUCUUCUAGAAGUUCUCCCCCAAAUCAGGUCAAUGUGUGCCCUCCUGAGCUCCCACCCAGGCAUCUCCAGUGCUCAUGAUCAUGUGUCCCCCAACUCCACCCC; value = 0.553
Sequence = AGCCUCUCCCACCUAACCUCUGCAUCCCCCAGCCUCAUGUCCUGCCCCAUCCCUAUCCUGCCUGAUCCCUGGAUCUCCCUCAGAUCCCCUCUUCUCAGACAGCGCCAGGC; value = 2.17
Sequence = GCAAAACCAGGUGUUGCUUUGCUAUGUUCCUGUACACUGUGGGAGAGGUAAUAGCAUCUGUGGGACACAGCAGAAUUGUACAAGUGUACAAUUAGUGUGUAGCAGAGCAC; value = 0.491

Set 3 — method: protein-binding microarray; form: double-stranded DNA, one strand shown; medium: in vitro; tested at: not given; direction: higher = stronger binding; measurement: E-score
Target: Protein max, full length (MAX, Homo sapiens, UniProt P61244-2, residues 1-151)
Notes: k-mer, scored over probes, only values ≥0.25
Sequence = GCCTCCCC; value = 0.291
Sequence = ACGTGGGG; value = 0.407
Sequence = ATGTGTAA; value = 0.286
Sequence = CATGCTGG; value = 0.447
Sequence = CAGGTGGC; value = 0.394
Sequence = GGCAGCAC; value = 0.259
Sequence = CACGCGGA; value = 0.47

Other studies, line by line
Molecule = PhoQ, residues 284 288 289 292 302 303 NLMGRA; target = PhoP, residues 12 14 15 18 19 STWGI (Escherichia coli, UniProt P23836); assay = Sort-seq, measured: YFP reporter; test system = E. coli; conditions = PhoQ-PhoP variant library, with: 10 µM Mg2+; how to read = baseline: high Mg2+ state, higher = stronger signaling; measurement = fold induction; value = 1.07

A few entries again (set 1):
Substitution = Q10N; value = 49.6%
Substitution = T120I; value = 3.32%
